Assay results from different studies.

SMILES	test	system	setting	endpoint	result
CN1C(=CC2=C(O)C(=CC3=[N+](CCC[N+](C)(C)C)c4ccc(F)cc4C3(C)C)C2=O)C(C)(C)c2ccccc21	–	mouse, duodenum and intestines	–	time to peak signal-to-background ratio	1 to 2 h
CCc1nc(N)nc(N)c1C#C[C@H](C)c1cc(-c2cc(C)nc(C)c2)ccc1Cl	–	mouse, plasma	dose not given	time above MIC in plasma	~10 h
COC(=O)c1ccc(-c2cn(Cc3cc(Cl)ccc3O[11CH3])nn2)cc1	PET/CT	C57BL/6 mouse, brain	–	time to homogeneous brain distribution	5 min
Cc1ccc(C2=C(c3ccc([18F])cc3)C(=O)OC2(C)C)cc1	dynamic PET/CT	female athymic nude mouse, SK-OV-3 xenograft	intraperitoneal, 1.5 h scan	time of maximal tumour uptake	~1 h
CC[C@H](C)[C@H](NC(=O)[C@H](Cc1ccccc1)NC(=O)[C@H](CCC(=O)O)NC(=O)[C@H](CCCCN)NC(=O)[C@H](C)NC(=O)[C@H](C)NC(=O)[C@H](CCC(N)=O)NC(=O)CNC(=O)[C@H](CCC(=O)O)NC(=O)[C@H](CC(C)C)NC(=O)[C@H](Cc1ccc(O)cc1)NC(=O)[C@H](CO)NC(=O)[C@H](CO)NC(=O)[C@@H](NC(=O)[C@H](CC(=O)O)NC(=O)[C@H](CO)NC(=O)[C@@H](NC(=O)[C@H](Cc1ccccc1)NC(=O)[C@@H](NC(=O)CNC(=O)[C@@H](N)CCC(=O)O)[C@@H](C)O)[C@@H](C)O)C(C)C)C(=O)N[C@@H](C)C(=O)N[C@@H](Cc1c[nH]c2ccccc12)C(=O)N[C@@H](CC(C)C)C(=O)N[C@H](C(=O)N[C@@H](CCCCN)C(=O)NCC(=O)N[C@@H](CCCNC(=N)N)C(N)=O)C(C)C	–	mouse, plasma	intraperitoneal, 500 µg	time to undetectable	≤ 30 min
O=C(CCCCC[N+]#[C][99Tc-5]([C]#[N+]CCCCCC(=O)N[C@H]1C(O)O[C@H](CO)[C@@H](O)[C@@H]1O)([C]#[N+]CCCCCC(=O)N[C@H]1C(O)O[C@H](CO)[C@@H](O)[C@@H]1O)([C]#[N+]CCCCCC(=O)N[C@H]1C(O)O[C@H](CO)[C@@H](O)[C@@H]1O)([C]#[N+]CCCCCC(=O)N[C@H]1C(O)O[C@H](CO)[C@@H](O)[C@@H]1O)[C]#[N+]CCCCCC(=O)N[C@H]1C(O)O[C@H](CO)[C@@H](O)[C@@H]1O)N[C@H]1C(O)O[C@H](CO)[C@@H](O)[C@@H]1O (stereo partly drawn)	SPECT	nude mouse with U87 MG xenograft	–	time to maximum tumour uptake	< 30 min
CN(C)c1ccc2c(-c3cc(C(=O)N4CCN(CCCOc5ccc6nccc(C(=O)NCC(=O)N7CC(F)(F)C[C@H]7C#N)c6c5)CC4)ccc3C(=O)[O-])c3ccc(=[N+](C)C)cc-3oc2c1	intravital imaging	mouse B16-F10-GFP tumour, tumour tissue	intravenous, 1 µM, 100 µL	time to baseline signal	24 h
CC1(C)CC[C@@]2(CO)C(=C3C=C[C@@H]4[C@@]5(C)CC[C@H](O)[C@@](C)(CO)[C@@H]5CC[C@@]4(C)[C@]3(C)C[C@@H]2O)C1	UHPLC-MS/MS	mouse, plasma	oral, 50 mg/kg of saikosaponin a	time of first detection	2 h
O=c1[nH]c2ccccc2n1CCCCCN1CCN(c2ccc(F)cc2)CC1	–	C57BL/6 mouse, plasma and brain	subcutaneous, 5 mg/kg	time to undetectable level	240 min

For quick reference, copied from above:
SMILES	test	system	setting	endpoint	result
Cc1ccc(C2=C(c3ccc([18F])cc3)C(=O)OC2(C)C)cc1	dynamic PET/CT	female athymic nude mouse, SK-OV-3 xenograft	intraperitoneal, 1.5 h scan	time of maximal tumour uptake	~1 h
